Results collected from several papers.
Several values in a cell are separate wells, animals, samples, runs or records. Numbers after ± are the reported error. ≈ marks a conversion by molar mass, not a printed value.
Ugcg: Ceramide glucosyltransferase (Ugcg, Mus musculus, UniProt O88693)
Sequence of UniProt O88693 (whole entry, looked up): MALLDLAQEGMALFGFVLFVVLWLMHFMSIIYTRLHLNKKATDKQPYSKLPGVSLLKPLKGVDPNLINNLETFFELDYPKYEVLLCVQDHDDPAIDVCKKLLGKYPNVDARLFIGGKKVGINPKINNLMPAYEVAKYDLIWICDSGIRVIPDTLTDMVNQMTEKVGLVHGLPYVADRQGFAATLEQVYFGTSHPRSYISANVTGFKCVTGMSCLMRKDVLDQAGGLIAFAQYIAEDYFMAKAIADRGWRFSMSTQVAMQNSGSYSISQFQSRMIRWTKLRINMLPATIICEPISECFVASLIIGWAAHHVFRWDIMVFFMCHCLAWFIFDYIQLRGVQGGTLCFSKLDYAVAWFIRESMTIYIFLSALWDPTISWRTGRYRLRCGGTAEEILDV

SMILES	tested on	assay	system	setting	how to read	quantity	result
CCCN(C)c1cc(C(F)(F)F)nc(SCCC(=O)NCc2ccco2)n1	–	electrocardiography	Wistar rat	intraperitoneal, 25 mg/kg, 2 min post-dose, isoflurane anaesthesia	reference: vehicle control	ECG parameters	no effect
CCn1cc(-c2cc(Cn3ccnc3)cc3c2CCN([C@H](c2cc(OC)ccn2)C2CC2)C3=O)c(C(F)(F)F)n1	–	–	CD-1 mouse, male, plasma	intravenous, 3 mg/kg	–	AUC extrapolated	0.2%
O=C(c1ccc([C@H]2[C@@H](F)[C@@H](F)C[C@@H](F)[C@H]2F)cc1)N1CCCC1	–	hepatocyte stability	cryopreserved rat hepatocytes	1 µM	–	hepatic clearance	47 mL/min/kg
COc1cccc(OC)c1-c1cc(C(=O)NC2(C(=O)O)C3CC4CC(C3)CC2C4)nn1-c1ccc(C(=O)N(C)CCCN(C)C(=O)[C@H](CCCCNC(=O)[C@H](CC(C)C)NC(=O)C2OC2C(=O)O)NC(=O)CN2CCN(CC(=O)[O-])CCN(CC(=O)[O-])CCN(CC(=O)[O-])CC2)cc1C(C)C.[177Lu+3] (mixture of isomers)	–	–	mouse, HT-29 xenograft	4 h post injection, biodistribution	reference: tumour over blood uptake	tumour-to-blood ratio	5
NS(=O)(=O)c1cccc(-c2ccc([C@H]3[C@@H](F)[C@@H](F)C[C@@H](F)[C@H]3F)cc2)c1	–	hepatocyte stability	cryopreserved mouse hepatocytes	1 µM	–	hepatic clearance	21 mL/min/kg
CCCCCCCOc1ccc(CC[C@](N)(CO)COP(=O)(O)O)cc1C(F)(F)F	–	–	healthy male humans, plasma	0.25 mg amiselimod, day 1, mean	–	AUCtau	10.9 ng·h/mL
CCC1=[N+]2N=C(/C=C/C=C/c3ccccc3)C(=O)O[B-]2(c2ccccc2)Oc2cc(N(CC)CC)ccc21 (stereo not drawn)	–	–	toluene	–	–	fluorescence emission maximum	548 nm
COc1cccc(OC)c1-c1cc(C(=O)NC2(C(=O)O)C3CC4CC(C3)CC2C4)nn1-c1ccc(C(=O)N(C)CCOCCN(C)C(=O)[C@H](CCCCNC(=O)[C@H](CC(C)C)NC(=O)C2OC2C(=O)O)NC(=O)CN2CCN(CC(=O)[O-])CCN(CC(=O)[O-])CCN(CC(=O)[O-])CC2)cc1C(C)C.[177Lu+3] (mixture of isomers)	–	–	mouse, HT-29 xenograft	24 h post injection, biodistribution	reference: tumour over blood uptake	tumour-to-blood ratio	6.84
OCCn1nc(-c2ccccc2)c2c(Cl)c(-c3ccccc3)nnc21	–	–	mouse juvenile P20, plasma	intraperitoneal, 130 mg/kg	–	AUC	7.41 µM·h
Cc1nc(N)nc2c1C(=O)N[C@@H](c1ccc(F)cc1-c1cccc(O[11CH3])n1)C2	–	ex vivo biodistribution	healthy mice, muscle	60 min post-injection, baseline, vehicle pre-treatment	–	SUV	0.6 ± 0.1
O=C(Nc1cnccc1-c1ccc([18F])nc1)c1ccnc(NC(=O)C2CC2)c1	–	–	FVB/NJ mice (both sexes), cortex	intravenous, dose not given, 120 min	–	SUV	0.017
CC(C)C[C@H](NC(=O)[C@H](CCCN)NC(=O)CNC(=O)[C@@H](NC(=O)[C@H](C)NC(=O)[C@@H]1CSCSC[C@H](NC(=O)CC[C@H](N)C(=O)O)C(=O)N[C@@H](CC(N)=O)C(=O)N[C@@H]([C@@H](C)O)C(=O)N[C@@H](C)C(=O)N[C@@H]([C@@H](C)O)C(=O)N1)[C@@H](C)O)C(=O)N[C@@H](C)C(=O)N[C@@H](CCC(=O)O)C(=O)N[C@@](C)(Cc1ccccc1)C(=O)N[C@@H](CC(C)C)C(=O)N[C@H](C(=O)N[C@@H](CCCNC(=N)N)C(=O)N[C@@H](CO)C(=O)N[C@@H](CO)C(=O)N[C@@H](CC(N)=O)C(=O)N(C)[C@@H](CC(N)=O)C(=O)N[C@@H](Cc1ccccc1)C(=O)NCC(=O)N1CCC[C@H]1C(=O)N[C@@H](CCCCNC(=O)CC[C@H](NC(=O)CC[C@H](NC(=O)CCCCCCCCCCCCCCCCCCC(=O)O)C(=O)O)C(=O)O)C(=O)N[C@@H](CC(C)C)C(=O)N1CCC[C@H]1C(=O)N1CCC[C@H]1C(=O)N[C@H](C(=O)N[C@@H](CCC(=O)O)C(=O)N[C@H](C(=O)NCC(=O)N[C@@H](CO)C(=O)N[C@@H](CC(N)=O)C(=O)N[C@H](C(=O)N[C@@H](Cc1ccc(O)cc1)C(N)=O)[C@@H](C)O)C(C)C)[C@@H](C)O)C(C)C	–	–	human, plasma	subcutaneous, 4 mg, single dose, healthy volunteers	–	half-life	366 h
C=C1CC[C@H](OCCCNC(=O)CCOCCOCCOCCOCCOCCOCCOCCOCCOCCOCCOCCOCCOCCOCCOCCOCCOCCOCCOCCOCCOCCOCCOCCOCCOCCOCCOCCOCCOCCOCCOCCOCCOCCOCCOCCOCCNC(=O)CCN2C(=O)CC(SC[C@H](NC(=O)[C@H](Cc3ccccc3)NC(=O)[C@H](CC(N)=O)NC(=O)[C@H](Cc3c[nH]cn3)NC(=O)[C@@H](NC(=O)[C@H](CC(=O)O)NC(=O)[C@H](CCC(N)=O)NC(=O)[C@H](CC(C)C)NC(=O)[C@H](CCCCN)NC(=O)[C@H](CCCCN)NC(=O)[C@H](CCCNC(=N)N)NC(=O)[C@H](CC(C)C)NC(=O)[C@H](Cc3c[nH]c4ccccc34)NC(=O)[C@H](CCC(=O)O)NC(=O)[C@@H](NC(=O)[C@H](CCCNC(=N)N)NC(=O)[C@H](CCC(=O)O)NC(=O)[C@H](CCSC)NC(=O)[C@H](CO)NC(=O)[C@H](CC(N)=O)NC(=O)[C@H](CC(C)C)NC(=O)[C@H](Cc3c[nH]cn3)NC(=O)[C@H](CCCCN)NC(=O)CNC(=O)[C@H](CC(C)C)NC(=O)[C@H](CC(N)=O)NC(=O)[C@H](Cc3c[nH]cn3)NC(=O)[C@H](CCSC)NC(=O)[C@H](CC(C)C)NC(=O)[C@H](CCC(N)=O)NC(=O)[C@@H](NC(=O)[C@H](CCC(=O)O)NC(=O)[C@H](CO)NC(=O)[C@@H](NC(=O)[C@@H](N)CO)C(C)C)[C@@H](C)CC)C(C)C)C(C)C)C(=O)O)C2=O)C/C1=C/C=C1\CCC[C@]2(C)[C@@H]([C@H](C)CCCC(C)(C)O)CC[C@@H]12 (stereo partly drawn)	–	–	rat, plasma	intravenous, 100 µg/kg, single dose	–	MRT	3.5 h
OC1(C(F)(F)F)CCN(c2nc(Nc3ccnc(C(F)(F)F)c3)nc(-c3cccc(C(F)(F)F)n3)n2)C1 (stereo not drawn)	–	–	Sprague-Dawley rat, both sexes, plasma	oral gavage, 20 mg/kg	–	AUC(0-24 h)	22300 ± 3230 ng·h/mL
CCCC[C@H](NC(=O)CNC(=O)CNC(=O)[C@H](CCCCNC(=O)[C@H](CC(=O)O)NC(=O)C(C)c1ccc(CC(C)C)cc1)NC(=O)CN1CCN(CC(=O)O)CCN(CC(=O)O)CCN(CC(=O)O)CC1)C(=O)N[C@H]1CC(=O)NCCCC[C@@H](C(N)=O)NC(=O)[C@H](Cc2c[nH]c3ccccc23)NC(=O)[C@H](CCCNC(=N)N)NC(=O)[C@@H](Cc2ccccc2)NC(=O)[C@H](Cc2c[nH]cn2)NC1=O (stereo partly drawn) [lutetium-177 labelled]	–	–	C57 mice, tumour	intravenous, 0.037 MBq, 24 h	reference: liver	tumour-to-tissue ratio	6.84
CN1CCCNC(=O)c2cccc(c2)C(=O)NCCCN(C)CCCNc2cccc3c2C(=O)c2cccc(c2C3=O)NCCC1	–	–	nude mice, serum	dose not given, 10 days	–	γ-GTP	< 3 U/L
C=C1C[C@]2(C(=O)OC)C=C(C(=O)Nc3cccc(C(=O)Nc4ccc(Nc5nccc(-c6cccnc6)n5)c(C)c4)c3)C(=O)[C@H]1C2	–	–	Wistar rat, male, plasma	10 µM, 10 min	–	compound remaining	19.6%

SMILES	tested on	assay	system	setting	how to read	quantity	result
CCC(CC)n1c(Cc2ccco2)nc2cc(C(=O)N[C@@H](CC(=O)O)c3ccccc3)ccc21	–	–	male Sprague-Dawley rat, plasma	intravenous, 1 mg/kg	–	MRT(0-t)	1.3 h
COc1ccc2c(c1)CN(C(=O)CCN1CCC(Cc3ccccc3)CC1)CCS2	–	–	human plasma	250 ng/mL	–	fu	0.017
C=CC(=O)Nc1cc(Nc2nccc(-c3cn(C)c4ccccc34)n2)c(OC)cc1N(C)CCNC	–	storage stability	human plasma	5 h, -80 °C, LLOQ level	–	recovery	97.8%
CN(C)c1cccc(-c2ccc([C@H]3[C@@H](F)[C@@H](F)C[C@@H](F)[C@H]3F)cc2)c1	–	liver microsome stability	rat liver microsomes	1 µM	–	hepatic clearance	44 mL/min/kg
OC[C@@H]1[C@@H](O)[C@H](O)[C@@H](O)CN1CCCCCOCc1ccc(-c2ccc(F)cc2)cc1	Ugcg	enzyme activity, inhibitor, fluorescence	–	–	–	IC50	25 nM
O=C(N1CCCCC1)C12CC(c3ccccc3)(C1)C2(F)F	–	metabolic stability	human, liver microsomes	2 µM, 7 min, pH 7.4	–	compound remaining	98%
O=C([O-])CN1CCN(CC(=O)[O-])CCN(CC(CCCc2ccccc2[N+](=O)[O-])N(CC(=O)[O-])CC(=O)[O-])CC1.[177Lu+3] (stereo not drawn)	–	TLC	human serum	62 h, pH 7, 37 °C	–	intact radiolabelled complex	99.9%
C#Cc1c(F)ccc2cc(O)cc(-c3ncc4c(N5CC6CCC(C5)N6C(=O)OC(C)OC(=O)c5ccc6ccccc6c5)nc(OC[C@@]56CCCN5C[C@H](F)C6)nc4c3F)c12 (stereo partly drawn)	–	item: prodrug	mouse whole blood	1 µM	–	t1/2	0.198 h
C=CC(=O)Nc1cc(Nc2nccc(-c3c[nH]c4ccccc34)n2)c(OC)cc1N(C)CCN(C)C	–	storage stability	human dried blood spot samples	30 d, -80 °C, LLOQ level	reference: nominal concentration	percentage recovery	42.2%
COc1cccc(OC)c1-c1cc(C(=O)NC2(C(=O)O)C3CC4CC(C3)CC2C4)nn1-c1ccc(C(=O)N(C)CCCN(C)CCCN(C)C(=O)[C@H](CCCCNC(=O)[C@H](CC(C)C)NC(=O)C2OC2C(=O)O)NC(=O)CN2CCN(CC(=O)[O-])CCN(CC(=O)[O-])CCN(CC(=O)[O-])CC2)cc1C(C)C.[177Lu+3] (mixture of isomers)	–	–	mouse, HT-29 xenograft	4 h post injection, biodistribution	reference: tumour over kidney uptake	tumour-to-kidney ratio	1.6
Cc1cc(-c2ccc(C(=O)[C@@H]3CCCC[C@H]3C(=O)Nc3cnn4c3C(=O)NCC4)cc2)[nH]n1	–	–	human, urine	oral, 200 mg, 0-6 h	reference: dose	radioactivity recovery per interval	1.77% and 2.75% and 1.75% and 2.03% and 1.3% and 2.88%
OC[C@@H]1[C@@H](O)[C@H](O)[C@@H](O)CN1CCCCCOCC1CCC1	Ugcg	enzyme activity, inhibitor	RAW264.7	in situ, with: C6-NBD-ceramide	–	IC50	640 nM
Cc1cc(F)ccc1-c1cc(N2C[C@H]3COC(O)CN3C[C@H]2CO)ncc1N(C)C(=O)C(C)(C)c1cc(C(F)(F)F)cc(C(F)(F)F)c1 (stereo partly drawn)	–	–	healthy male human	oral, 120 mg, up to 480 h cumulative	reference: dose	amount excreted in faeces	1.39%
COCC1CN(C2CCN(c3cc(OC)c(Nc4ncc(Br)c(Nc5ccc6c(c5P(C)(C)=O)OCCO6)n4)cc3C)CC2)C1	–	–	EGFR-mutant NSCLC patients, plasma	oral, 10 mg single dose, geometric mean	–	t1/2	26.7 h
CN(O)C(=O)CCC(=O)NCCCN(CCCCN(CCCNC(=O)CCC(=O)N(C)O)C(=O)CCC(=O)N(C)O)C(=O)CCC(=O)N(C)O.[89Zr]	–	radio-TLC	aqueous buffer	7 d, pH 7.2, 37 °C, 89Zr-labelled complex, with: FeCl3 10-fold excess	–	intact complex	97.5 ± 1%
O=S1(=O)CC2CCCCC2CS1 (stereo not drawn)	–	phase solubility, NMR	water	25 °C, with: hydroxypropyl-β-cyclodextrin 614 mM	–	solubility	70 mM (≈ 14.4 mg/mL)

Repeated from above:
SMILES	tested on	assay	system	setting	how to read	quantity	result
CN(O)C(=O)CCC(=O)NCCCN(CCCCN(CCCNC(=O)CCC(=O)N(C)O)C(=O)CCC(=O)N(C)O)C(=O)CCC(=O)N(C)O.[89Zr]	–	radio-TLC	aqueous buffer	7 d, pH 7.2, 37 °C, 89Zr-labelled complex, with: FeCl3 10-fold excess	–	intact complex	97.5 ± 1%
C=C1C[C@]2(C(=O)OC)C=C(C(=O)Nc3cccc(C(=O)Nc4ccc(Nc5nccc(-c6cccnc6)n5)c(C)c4)c3)C(=O)[C@H]1C2	–	–	Wistar rat, male, plasma	10 µM, 10 min	–	compound remaining	19.6%
O=C([O-])CN1CCN(CC(=O)[O-])CCN(CC(CCCc2ccccc2[N+](=O)[O-])N(CC(=O)[O-])CC(=O)[O-])CC1.[177Lu+3] (stereo not drawn)	–	TLC	human serum	62 h, pH 7, 37 °C	–	intact radiolabelled complex	99.9%
OCCn1nc(-c2ccccc2)c2c(Cl)c(-c3ccccc3)nnc21	–	–	mouse juvenile P20, plasma	intraperitoneal, 130 mg/kg	–	AUC	7.41 µM·h
O=C(N1CCCCC1)C12CC(c3ccccc3)(C1)C2(F)F	–	metabolic stability	human, liver microsomes	2 µM, 7 min, pH 7.4	–	compound remaining	98%
CCCN(C)c1cc(C(F)(F)F)nc(SCCC(=O)NCc2ccco2)n1	–	electrocardiography	Wistar rat	intraperitoneal, 25 mg/kg, 2 min post-dose, isoflurane anaesthesia	reference: vehicle control	ECG parameters	no effect
